Measured values gathered from unrelated publications.
Each line is one published result; not all experiments were run side by side. ± marks the error that the study gave.

CC(C)C[C@@H](NC(=O)[C@@H](CCCNC(=N)N)NC(=O)[C@H](N)CCCNC(=N)N)C(=O)N[C@H](CC(C)C)C(=O)N[C@H](CCCNC(=N)N)C(=O)N[C@H](CCCCN)C(=O)N[C@H](CC(C)C)C(=O)N[C@H](CCCCN)C(=O)NCC(=O)N[C@H](CCCCN)C(=O)N[C@H](CCCCN)C(=O)N[C@H](CC(C)C)C(=O)N[C@H](Cc1ccc(O)cc1)C(=O)N[C@H](CC(C)C)C(=O)N[C@H](Cc1ccc(O)cc1)C(=O)N[C@H](Cc1ccccc1)C(=O)N[C@H](CCCCN)C(=O)N[C@H](CC(C)C)C(=O)N[C@H](CCC(N)=O)C(=O)N[C@H](CC(C)C)C(=O)N[C@H](CC(C)C)C(=O)N[C@H](CCCCN)C(=O)N[C@H](CCCCN)C(N)=O
MIC (Escherichia coli; KCTC 1682, Mueller-Hinton broth; together with: 4.5 mM KCl): 16 µM

CC[C@H](C)[C@H](NC(=O)[C@@H](NC(=O)[C@H](CCCCN)NC(=O)[C@H](CCCCN)NC(=O)[C@@H](NC(=O)[C@H](Cc1c[nH]c2ccccc12)NC(=O)[C@H](CCCCN)NC(=O)[C@@H](NC(=O)[C@H](CC(C)C)NC(=O)[C@H](CCCCN)NC(=O)[C@H](CCCCN)NC(=O)[C@@H](N)C(C)C)[C@@H](C)CC)[C@@H](C)CC)C(C)C)C(N)=O
MIC (Escherichia coli; 24 h, 37 °C, Mueller-Hinton broth, NH4Cl 6 µM): 32 µM

CCn1c(-c2ccc(OC)cc2)c(-c2ccc(OC)cc2)n(Cc2c(C)cc(C)cc2C)c1=[Se]
MIC (Escherichia coli; broth microdilution; carbapenem-resistant BAA-2140; 24 h): > 40 µM

CC[C@H](C)[C@H](NC(=O)[C@@H](CCCNC(=N)N)NC(=O)[C@H](CCCNC(=N)N)NC(=O)[C@H](Cc1c[nH]cn1)NC(=O)[C@H](Cc1c[nH]c2ccccc12)NC(=O)[C@H](CCCNC(=N)N)NC(=O)[C@@H]1CCCN1C(=O)[C@H](CCCNC(=N)N)NC(=O)[C@@H]1CCCN1C(=O)[C@H](CC(C)C)NC(=O)[C@H](Cc1ccc(O)cc1)NC(=O)[C@@H]1CCCN1C(=O)[C@@H]1CCCN1C(=O)[C@H](CCCCN)NC(=O)[C@H](CC(=O)O)NC(=O)[C@@H](N)C(C)C)C(=O)N[C@@H](Cc1ccc(O)cc1)C(=O)N[C@@H](CC(N)=O)C(=O)N[C@H](CCCNC(=N)N)C(N)=O
MIC (Escherichia coli; broth microdilution; BW25113; 18 h, 37 °C, 25% MHB2): 16 µg/mL

CC[C@H](C)[C@H](NC(=O)[C@H](CCCCN)NC(=O)[C@H](CCC(N)=O)NC(=O)[C@H](C)NC(=O)[C@H](Cc1ccc(O)cc1)NC(=O)[C@H](CCC(=O)O)NC(=O)[C@H](CCCCN)NC(=O)[C@H](C)NC(=O)[C@H](CC(C)C)NC(=O)[C@H](CCCNC(=N)N)NC(=O)[C@H](CC(C)C)NC(=O)CNC(=O)[C@H](CCCCN)NC(=O)[C@H](C)NC(=O)[C@H](CCCNC(=N)N)NC(=O)[C@H](CC(C)C)NC(=O)[C@H](CCCCN)NC(=O)[C@H](CCC(N)=O)NC(=O)[C@H](C)NC(=O)[C@H](CC(C)C)NC(=O)[C@H](CCCCN)NC(=O)[C@H](CO)NC(=O)[C@H](CCCCN)NC(=O)[C@@H](N)Cc1c[nH]c2ccccc12)C(=O)N[C@@H](CC(C)C)C(=O)N[C@@H](CC(N)=O)C(=O)O
MIC (Escherichia coli; broth microdilution; K88, Mueller-Hinton broth; 37 °C): 4.39 µg/mL

CC[C@H](C)[C@H](NC(=O)[C@@H](CCCNC(=N)N)NC(=O)[C@H](CCCNC(=N)N)NC(=O)[C@@H]1CCCN1C(=O)[C@@H]1CCCN1C(=O)[C@H](CCCNC(=N)N)NC(=O)[C@@H]1CCCN1C(=O)[C@H](CCCNC(=N)N)NC(=O)[C@@H]1CCCN1C(=O)[C@H](CC(C)C)NC(=O)[C@H](Cc1ccc(O)cc1)NC(=O)[C@@H]1CCCN1C(=O)[C@H](Cc1ccccc1)NC(=O)[C@H](CCCCN)NC(=O)[C@H](CC(=O)O)NC(=O)[C@@H](N)C(C)C)C(=O)N[C@@H](Cc1ccc(O)cc1)C(=O)N[C@@H](CC(N)=O)C(=O)N[C@H](CCCNC(=N)N)C(N)=O
MIC (Escherichia coli; broth microdilution; BW25113; 18 h, 37 °C, 25% MHB2): 16 µg/mL

CC[C@H](C)[C@H](N)C(=O)N[C@H](C)C(=O)N[C@@H](CC(C)C)C(=O)N[C@H](CCC(=O)O)C(=O)N[C@H](C(=O)N[C@H]1CCCCNC(=O)[C@H](CC(N)=O)NC(=O)[C@@H](CC(=O)O)NC(=O)[C@H](Cc2c[nH]cn2)NC(=O)[C@@H](Cc2ccccc2)NC(=O)[C@H]([C@@H](C)CC)NC(=O)[C@@H](CCCN)NC1=O)[C@@H](C)CC
MIC (Escherichia coli; ATCC 25922; 18 h, 37 °C, 0.3 mM ZnSO4 LB): > 64 µg/mL

CC[C@H](C)[C@H](NC(=O)[C@@H](CCCNC(=N)N)NC(=O)[C@H](CCCNC(=N)N)NC(=O)[C@@H]1CCCN1C(=O)[C@@H]1CCCN1C(=O)[C@H](CCCNC(=N)N)NC(=O)[C@@H]1CCCN1C(=O)[C@H](CCCNC(=N)N)NC(=O)[C@@H]1CCCN1C(=O)[C@H](Cc1ccccc1)NC(=O)[C@H](Cc1ccc(O)cc1)NC(=O)[C@@H]1CCCN1C(=O)[C@@H]1CCCN1C(=O)[C@H](CCCCN)NC(=O)[C@H](CC(=O)O)NC(=O)[C@@H](N)C(C)C)C(=O)N[C@@H](Cc1ccc(O)cc1)C(=O)N[C@@H](CC(N)=O)C(=O)N[C@H](CCCNC(=N)N)C(N)=O
MIC (Escherichia coli; broth microdilution; MC4100; 18 h, 37 °C, 25% MHB2): 32 µg/mL

CC[C@H](C)[C@H](NC(=O)[C@@H](NC(=O)[C@H](CCCCN)NC(=O)[C@H](CCCCN)NC(=O)[C@@H](NC(=O)[C@H](Cc1c[nH]c2ccccc12)NC(=O)[C@H](CCCCN)NC(=O)[C@H](Cc1c[nH]c2ccccc12)NC(=O)[C@H](CC(C)C)NC(=O)[C@H](CCCCN)NC(=O)[C@H](CCCCN)NC(=O)[C@@H](N)C(C)C)[C@@H](C)CC)C(C)C)C(N)=O
MIC (Escherichia coli; 24 h, 37 °C, Mueller-Hinton broth, NH4Cl 6 µM): 16 µM

O=C1NC2(CC2)COc2ncc(F)cc2[C@H]2COCCN2c2ccn3ncc1c3n2
organ-to-body weight ratio (Sprague-Dawley rat, male, kidneys; oral, 20 mg/kg/day, 4 weeks, end of treatment): 0.754 ± 0.11%

CCCCCCCC(=O)N[C@@H](CCN)C(=O)N[C@H](C(=O)N[C@@H](CCN)C(=O)N[C@H]1CCNC(=O)[C@H]([C@@H](C)O)NC(=O)[C@H](CCN)NC(=O)[C@H](CCN)NC(=O)[C@H](CCC(C)C)NC(=O)[C@@H](Cc2ccccc2)NC(=O)[C@H](CCN)NC1=O)[C@@H](C)O
MIC (Escherichia coli; broth microdilution; ATCC 25922): 0.125 to 0.25 µg/mL

CC(C)C[C@H](NC(=O)[C@H](CCCNC(=N)N)NC(=O)[C@H](C)NC(=O)[C@H](CC(C)C)NC(=O)[C@H](CCCNC(=N)N)NC(=O)[C@H](C)NC(=O)[C@H](CCCCN)NC(=O)[C@H](CC(C)C)NC(=O)[C@H](CCCNC(=N)N)NC(=O)[C@H](Cc1ccc(O)cc1)NC(=O)[C@H](CC(C)C)NC(=O)[C@H](CCCNC(=N)N)NC(=O)[C@H](C)NC(=O)[C@H](CCCNC(=N)N)NC(=O)[C@H](CC(C)C)NC(=O)[C@H](CCCCN)NC(=O)[C@H](C)NC(=O)[C@H](CC(C)C)NC(=O)[C@H](CCCNC(=N)N)NC(=O)[C@H](C)NC(=O)[C@@H](N)CCCCN)C(N)=O
MIC (Escherichia coli; K12; 24 h): 10.2 µM

CO[C@@H](C(N)=O)[C@H](NC(=O)c1ccc(NC(=O)[C@@H](N)Cc2ccccc2)cc1)C(=O)Nc1ccc(C(=O)Nc2ccc(C(=O)Nc3ccc(C(=O)O)c(O)c3OC(C)C)c(O)c2OC(C)C)cc1
MIC (Escherichia coli; glutathione S-transferase-like clone; 16 h, 37 °C): 0.031 µg/mL

C#CCO/N=C(\C(=O)N[C@@H]1C(=O)N(OS(=O)(=O)O)C1(C)C)c1csc(N)n1
MIC (Escherichia coli; agar dilution; CDC 1001728, NDM-1): 4 µg/mL

CC[C@H](C)[C@H](NC(=O)[C@H](Cc1c[nH]c2ccccc12)NC(=O)[C@H](CCCCN)NC(=O)[C@H](CC(C)C)NC(=O)[C@@H](NC(=O)[C@@H](NC(=O)CNC(=O)[C@H](CCCCN)NC(=O)[C@H](Cc1c[nH]cn1)NC(=O)[C@H](CCCCN)NC(=O)[C@H](Cc1c[nH]c2ccccc12)NC(=O)[C@H](C)NC(=O)[C@H](CC(C)C)NC(=O)[C@H](CO)NC(=O)[C@@H](NC(=O)[C@H](Cc1ccc(O)cc1)NC(=O)[C@H](CCCCN)NC(=O)[C@H](CCC(N)=O)NC(=O)CNC(=O)[C@H](CCCCN)NC(=O)[C@@H](NC(=O)[C@H](C)NC(=O)[C@H](CC(C)C)NC(=O)[C@H](Cc1ccccc1)NC(=O)[C@H](CCC(N)=O)NC(=O)[C@@H](NC(=O)[C@H](CC(C)C)NC(=O)[C@H](CCCCN)NC(=O)[C@H](CCSC)NC(=O)[C@H](Cc1ccccc1)NC(=O)[C@H](C)NC(=O)[C@H](C)NC(=O)[C@@H](N)CCSC)[C@@H](C)CC)[C@@H](C)O)C(C)C)[C@@H](C)O)[C@@H](C)CC)C(=O)N[C@@H](CC(N)=O)C(N)=O
MIC (Escherichia coli; broth microdilution; ATCC 15597; 24 h, 37 °C): 6 µg/mL

CC1(C)[C@H](NC(=O)/C(=N\OCC(=O)N2CCC(C(=O)O)C2)c2nsc(N)n2)C(=O)N1OS(=O)(=O)O (some centres unmarked)
MIC (Escherichia coli; agar dilution; CDC 1001728, NDM-1): > 64 µg/mL

CC[C@H](C)[C@H](NC(=O)[C@H](CCCNC(=N)N)NC(=O)[C@H](CO)NC(=O)[C@H](Cc1ccc(O)cc1)NC(=O)[C@@H](NC(=O)[C@@H](NC(=O)[C@H](C)NC(=O)CNC(=O)[C@H](CCCCN)NC(=O)[C@H](CCCCN)NC(=O)CCNC(=O)CCCCCNC(=O)[C@H](CCCNC(=N)N)NC(=O)CCCCCNC(=O)[C@H](CCCNC(=N)N)NC(=O)[C@H](CCCNC(=N)N)NC(=O)CCCCCNC(=O)[C@H](CCCNC(=N)N)NC(=O)[C@H](CCCNC(=N)N)NC(=O)CCCCCNC(=O)[C@H](CCCNC(=N)N)NC(=O)[C@H](CCCNC(=N)N)NC(=O)CCCCCNC(=O)[C@@H](N)CCCNC(=N)N)C(C)C)[C@@H](C)O)C(=O)N[C@@H](CO)C(=O)NCC(=O)N[C@@H](CCC(N)=O)C(=O)N[C@@H](Cc1ccc(O)cc1)C(=O)N[C@@H](CCCCN)C(=O)O
MIC (Escherichia coli; ATCC 25922; 1 h, 37 °C, after 12.5% human serum): 6 µM

For quick reference, copied from above:
CC[C@H](C)[C@H](NC(=O)[C@@H](NC(=O)[C@H](CCCCN)NC(=O)[C@H](CCCCN)NC(=O)[C@@H](NC(=O)[C@H](Cc1c[nH]c2ccccc12)NC(=O)[C@H](CCCCN)NC(=O)[C@H](Cc1c[nH]c2ccccc12)NC(=O)[C@H](CC(C)C)NC(=O)[C@H](CCCCN)NC(=O)[C@H](CCCCN)NC(=O)[C@@H](N)C(C)C)[C@@H](C)CC)C(C)C)C(N)=O
MIC (Escherichia coli; 24 h, 37 °C, Mueller-Hinton broth, NH4Cl 6 µM): 16 µM

CC[C@H](C)[C@H](NC(=O)[C@@H](CCCNC(=N)N)NC(=O)[C@H](CCCNC(=N)N)NC(=O)[C@@H]1CCCN1C(=O)[C@@H]1CCCN1C(=O)[C@H](CCCNC(=N)N)NC(=O)[C@@H]1CCCN1C(=O)[C@H](CCCNC(=N)N)NC(=O)[C@@H]1CCCN1C(=O)[C@H](Cc1ccccc1)NC(=O)[C@H](Cc1ccc(O)cc1)NC(=O)[C@@H]1CCCN1C(=O)[C@@H]1CCCN1C(=O)[C@H](CCCCN)NC(=O)[C@H](CC(=O)O)NC(=O)[C@@H](N)C(C)C)C(=O)N[C@@H](Cc1ccc(O)cc1)C(=O)N[C@@H](CC(N)=O)C(=O)N[C@H](CCCNC(=N)N)C(N)=O
MIC (Escherichia coli; broth microdilution; MC4100; 18 h, 37 °C, 25% MHB2): 32 µg/mL
